Measurements pooled from the literature.
Parts stem from different laboratories: compare values within a part only.
Chain of UniProt Q96B02 (whole entry, looked up): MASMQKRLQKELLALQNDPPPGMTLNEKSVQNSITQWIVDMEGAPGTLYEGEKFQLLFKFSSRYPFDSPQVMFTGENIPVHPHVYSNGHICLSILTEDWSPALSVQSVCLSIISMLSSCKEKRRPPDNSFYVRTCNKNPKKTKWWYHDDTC
Chain of UniProt P61077 (whole entry, looked up): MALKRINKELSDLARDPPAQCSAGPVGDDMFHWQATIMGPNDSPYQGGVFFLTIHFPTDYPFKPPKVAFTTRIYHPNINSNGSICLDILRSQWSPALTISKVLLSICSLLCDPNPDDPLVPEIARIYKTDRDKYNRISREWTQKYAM
Chain of UniProt P49459 (whole entry, looked up): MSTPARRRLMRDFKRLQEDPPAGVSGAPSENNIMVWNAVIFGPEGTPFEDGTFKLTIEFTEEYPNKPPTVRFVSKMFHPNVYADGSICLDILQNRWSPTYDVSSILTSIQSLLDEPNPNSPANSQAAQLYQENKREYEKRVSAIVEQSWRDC

Block 1
Target: Hepatocyte nuclear factor 3-alpha (Foxa1, Mus musculus, UniProt P35582, residues 1-468, full length assumed)
Chain of UniProt P35582 (whole entry, looked up): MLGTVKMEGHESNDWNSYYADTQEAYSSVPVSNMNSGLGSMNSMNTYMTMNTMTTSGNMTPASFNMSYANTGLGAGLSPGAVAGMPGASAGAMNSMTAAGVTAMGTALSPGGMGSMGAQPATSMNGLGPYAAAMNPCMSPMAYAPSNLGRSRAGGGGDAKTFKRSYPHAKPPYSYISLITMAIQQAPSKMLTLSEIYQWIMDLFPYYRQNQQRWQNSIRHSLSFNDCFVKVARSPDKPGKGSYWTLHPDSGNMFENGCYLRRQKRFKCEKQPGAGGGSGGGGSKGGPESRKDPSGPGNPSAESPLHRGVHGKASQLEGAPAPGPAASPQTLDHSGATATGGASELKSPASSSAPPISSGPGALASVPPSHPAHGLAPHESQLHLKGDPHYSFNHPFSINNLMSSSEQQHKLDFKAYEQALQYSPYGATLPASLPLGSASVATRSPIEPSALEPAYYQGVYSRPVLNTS
Technique: EMSA with sequencing
Molecule type: double-stranded DNA, one strand shown
Sample: in vitro
Tested at: 10 and 20 nM
Notes: whole designed probe, mean of two concentrations, ends assumed
Baseline: negative control set to 0
Direction: higher = stronger binding
Under “normalised bound fraction”, `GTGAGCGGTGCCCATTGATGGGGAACGGACAGGATTAGAGAAGCAACGTAGAAGTTCAAATATTTCACCTACCTGTCAACAGATTAGTGTGTGTTAAGTCAATATCTTTGCCAGATTAGGCAAACAAAAAGATCGTGTTGTGCAATATATGGGACATACTTATACTACAGTTTTATCTGTTGTTTATTTGAGGTTCAAATTACACTGGCAGCCCTTCATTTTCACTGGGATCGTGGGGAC` is recorded as 0.39 ratio.
Under “normalised bound fraction”, `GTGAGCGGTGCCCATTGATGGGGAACATCTTCCCCCTCTTCCTTGCCCCACCAGCTCACCTTCCCGGGTTATTTGCAGATAGGAAAATAAATAAAGCCGGCATTCGTTAACCCTCTTCTGGCGCAAACTGCTGTTTGCTCTGGATGAATCATGGTCCTTTGGCGATGCGGCACGACCGGGGACCAAAGCACCGTGTCAGGGCCATGATCCGGGGTGGCCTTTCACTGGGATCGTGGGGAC` is recorded as 0.361 ratio.
`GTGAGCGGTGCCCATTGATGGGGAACATCTTCCCCCTCTTCCTTCCACGGCCCACTCACCTTCCCGGGTTATTTGCAGATAGGAAAATAAATAAAGCCGGCATTCGTTAACCCTCTTCTGGCGCAAACTGCTGTTTGCTCTGGATGAATCATGGTCCTTTGGCGACGCCAGGCTCCGGGAGAGCAAAGCACCGTGTCAGGGCCATGATCCGGGGTGGCCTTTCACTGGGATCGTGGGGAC` — result for “normalised bound fraction”: 0.314 ratio.
`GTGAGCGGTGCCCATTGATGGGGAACAATTTTAGGCTTTTCTACTCTCAACTTCTCTCTGAACTCAAAATTGCAGTGCACCCTCATGAATCTGAGAACAATAAGATTGGCCTAACAAAGTAATCTGGAAGAAAGAATACAATTTGGATGCAGAATATCATTCAAGAAAAACATAGTAAAAGTTATAGATAAATGTAATTACTACTCATTTGCAAAACTGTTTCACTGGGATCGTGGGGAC` — result for “normalised bound fraction”: -0.0636 ratio.
`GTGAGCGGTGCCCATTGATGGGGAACATACTGGTATTACCCACCTCACTATTATGAAGTATAACATACAGCGTGCACAGCACAGTGTCTGGCCCATTGTAGTTGCTCAATAGCTTTTAGTGTTTGCTTTTATGAGTTTGAGTCATCTTTGTGGTGAGGATTACAGACCCTGACCCCTCTACTTGAGGTAGAACCAAGTCTATGGTTTCTCAGCCTGGGCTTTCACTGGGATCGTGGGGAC`: “normalised bound fraction” 0.27 ratio.
`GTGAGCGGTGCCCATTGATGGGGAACATCTAGTTCCAGTCTTAGCTTGGCAATTTCTTCCCGCAACATGCTGTTTTCACGCAAGAGATCTTCTTCTTTCTTATGACTAAGAGAAAGCTAAGTAAACAAAGGGAACTTTTAGTTAGCACTCAATAGAATGACATATCATGATTTCTTCTAAAATCAAAGAATGACATTTATATTTGTATAATGAAATAATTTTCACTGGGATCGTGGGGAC` — result for “normalised bound fraction”: 0.51 ratio.
`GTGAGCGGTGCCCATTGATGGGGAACCATCTCGGCCTCCATAACTGCTGGGATTACAAGCATGAGCCACTATACCTGGCTGAAATTTTTTAACATACTAGTATTTGTGTAATTTAAAAAATAATCTGGCTGGGCACGGTGGCTCATGCCTGTAATCCCAGCACTTTGGGAGGCCGAGGCAGGTGGATCCTGAGGTCAAAAGATAGAGACCGTCCTGGCCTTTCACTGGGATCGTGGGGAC` — result for “normalised bound fraction”: 0.0674 ratio.
Under “normalised bound fraction”, `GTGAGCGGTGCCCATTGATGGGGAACTATGTGGGAACTAATTGAGGACCAAGATTACAATGCGTACAAATCATAAATCAATTAGTTCATATTGATTTACAAACAAGGAAGAAAAAGTATTAGATTACATTGATACTGTCCATGTAAACTTTTTTCAATTCAAAAGAAACACATAGTTCTGTCATAAAGTAGATTTTCTATCCCTTTTATTTTCTGAGCTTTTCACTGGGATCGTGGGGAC` is recorded as 0.133 ratio.

Block 2
Molecule: BRCA1 RING domain (UniProt P38398)
Technique: yeast two-hybrid
Sample: yeast
Notes: mostly zero background
Baseline: not given
Direction: higher = stronger interaction
It gave 0 for “lacZ reporter activity” (UBE2D3 UBC core domain (UniProt P61077)).
UBE2W UBC core domain (UniProt Q96B02) — “lacZ reporter activity”: 3800.
For UBE2A UBC core domain (UniProt P49459): “lacZ reporter activity” read 0.

Block 3
Target: HLA class I histocompatibility antigen, A alpha chain, allele A*80:01 (Homo sapiens, UniProt P04439)
Observed: peptide-MHC binding
Molecule type: peptide
Tested at: concentration not given
For `RQRHYFDSA`, binding read “inactive”.
For `DPPEPLVRI`, binding read “inactive”.
Under binding, `LVRDITESL` is recorded as “inactive”.

Block 4
Target: Eukaryotic initiation factor 4A-I (EIF4A1, Homo sapiens, UniProt P60842, residues 1-406, full length assumed)
Chain of UniProt P60842 (whole entry, looked up): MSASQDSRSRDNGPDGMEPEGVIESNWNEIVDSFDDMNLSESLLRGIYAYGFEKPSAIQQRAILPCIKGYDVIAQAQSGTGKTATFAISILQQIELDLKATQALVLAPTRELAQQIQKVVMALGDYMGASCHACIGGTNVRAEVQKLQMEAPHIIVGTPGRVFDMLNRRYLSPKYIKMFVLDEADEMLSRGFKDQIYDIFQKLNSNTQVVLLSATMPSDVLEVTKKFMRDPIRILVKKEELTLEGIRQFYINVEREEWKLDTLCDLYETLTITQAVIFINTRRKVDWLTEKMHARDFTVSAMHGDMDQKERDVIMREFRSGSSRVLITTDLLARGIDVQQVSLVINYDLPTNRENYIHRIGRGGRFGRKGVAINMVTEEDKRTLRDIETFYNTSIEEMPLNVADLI
Technique: RNA Bind-n-Seq
Molecule type: RNA
Sample: in vitro
Tested at: 15 pmol
Notes: 4-mer, random 30-nt RNA, single round
Added: 3 µM RocA, 2 mM AMP-PNP
Baseline: mean of 4-mers
Direction: higher = stronger binding
`GGCA`: “4-mer enrichment Z-score” 0.0412.
`CUAG` — result for “4-mer enrichment Z-score”: -0.291.
`CAGA` — result for “4-mer enrichment Z-score”: -0.116.
`GUAG`: “4-mer enrichment Z-score” 0.857.
`AUAA`: “4-mer enrichment Z-score” 0.823.
`GGAC`: “4-mer enrichment Z-score” -0.17.
For `AUCU`, “4-mer enrichment Z-score” read -0.789.
`UGUA` — result for “4-mer enrichment Z-score”: 0.651.
